Published values from different studies.
Lines come from different studies, so protocols differ. ± marks the error that the study gave.
PTGS1: Prostaglandin G/H synthase 1 (PTGS1, Ovis aries, UniProt P05979)
Chain of UniProt P05979 (whole entry, looked up): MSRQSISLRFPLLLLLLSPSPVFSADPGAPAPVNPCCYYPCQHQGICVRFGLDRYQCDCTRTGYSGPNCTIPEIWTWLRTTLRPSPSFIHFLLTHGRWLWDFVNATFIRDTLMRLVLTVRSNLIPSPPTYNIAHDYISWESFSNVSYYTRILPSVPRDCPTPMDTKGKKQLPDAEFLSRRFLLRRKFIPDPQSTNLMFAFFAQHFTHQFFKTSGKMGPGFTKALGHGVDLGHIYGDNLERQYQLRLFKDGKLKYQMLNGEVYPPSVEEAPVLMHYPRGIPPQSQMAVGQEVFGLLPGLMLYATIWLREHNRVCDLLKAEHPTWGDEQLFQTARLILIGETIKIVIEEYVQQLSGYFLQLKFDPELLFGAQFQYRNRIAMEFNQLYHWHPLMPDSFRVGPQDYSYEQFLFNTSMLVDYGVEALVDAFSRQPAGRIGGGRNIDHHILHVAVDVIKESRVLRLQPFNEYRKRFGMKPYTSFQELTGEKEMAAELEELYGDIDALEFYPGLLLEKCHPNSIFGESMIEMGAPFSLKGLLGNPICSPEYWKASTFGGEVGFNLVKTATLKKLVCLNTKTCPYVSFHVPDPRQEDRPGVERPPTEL
Adhesin FmlH lectin domain: Adhesin FmlH, lectin domain (Escherichia coli, UniProt Q1RBS0)
USP51: Ubiquitin carboxyl-terminal hydrolase 51 (USP51, Homo sapiens, UniProt Q70EK9)
Chain of UniProt Q70EK9 (whole entry, looked up): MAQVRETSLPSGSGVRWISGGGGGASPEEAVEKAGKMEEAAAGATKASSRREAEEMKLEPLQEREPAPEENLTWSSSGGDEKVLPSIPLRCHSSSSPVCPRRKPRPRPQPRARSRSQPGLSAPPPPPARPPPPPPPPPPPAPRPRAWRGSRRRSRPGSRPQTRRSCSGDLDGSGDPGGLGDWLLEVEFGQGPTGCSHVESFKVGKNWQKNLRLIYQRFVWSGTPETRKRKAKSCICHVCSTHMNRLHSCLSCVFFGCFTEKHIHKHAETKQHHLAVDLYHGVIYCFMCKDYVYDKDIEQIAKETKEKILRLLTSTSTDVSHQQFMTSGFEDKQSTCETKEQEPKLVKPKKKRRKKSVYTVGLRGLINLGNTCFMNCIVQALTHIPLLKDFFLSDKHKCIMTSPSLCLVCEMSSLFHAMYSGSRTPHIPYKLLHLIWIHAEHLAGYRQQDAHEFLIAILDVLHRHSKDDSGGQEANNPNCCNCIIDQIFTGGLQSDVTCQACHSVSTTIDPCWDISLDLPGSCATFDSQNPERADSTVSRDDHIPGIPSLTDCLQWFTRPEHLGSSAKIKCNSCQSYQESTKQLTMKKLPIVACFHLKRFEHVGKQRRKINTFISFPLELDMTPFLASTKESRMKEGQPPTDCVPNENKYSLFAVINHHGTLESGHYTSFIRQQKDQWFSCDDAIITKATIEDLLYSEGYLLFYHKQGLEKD
MAL12: Alpha-glucosidase MAL12 (MAL12, Saccharomyces cerevisiae S288c, UniProt P53341)
Chain of UniProt P53341 (whole entry, looked up): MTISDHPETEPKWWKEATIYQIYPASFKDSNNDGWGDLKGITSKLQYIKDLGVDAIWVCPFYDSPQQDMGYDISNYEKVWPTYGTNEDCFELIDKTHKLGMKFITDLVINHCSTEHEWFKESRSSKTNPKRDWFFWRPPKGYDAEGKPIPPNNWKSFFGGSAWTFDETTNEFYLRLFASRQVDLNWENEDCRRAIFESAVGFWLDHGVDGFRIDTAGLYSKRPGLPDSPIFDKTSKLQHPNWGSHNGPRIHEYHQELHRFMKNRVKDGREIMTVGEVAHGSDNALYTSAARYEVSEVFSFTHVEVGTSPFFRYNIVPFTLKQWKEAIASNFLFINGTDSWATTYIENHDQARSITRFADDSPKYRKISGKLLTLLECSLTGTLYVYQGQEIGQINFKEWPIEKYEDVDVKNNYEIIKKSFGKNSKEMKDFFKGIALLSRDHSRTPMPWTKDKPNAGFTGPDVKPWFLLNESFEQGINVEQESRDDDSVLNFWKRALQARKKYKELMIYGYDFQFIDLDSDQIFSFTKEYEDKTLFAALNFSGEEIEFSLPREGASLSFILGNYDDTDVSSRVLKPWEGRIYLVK
CAPN1: Calpain-1 catalytic subunit (CAPN1, Homo sapiens, UniProt P07384)
Chain of UniProt P07384 (whole entry, looked up): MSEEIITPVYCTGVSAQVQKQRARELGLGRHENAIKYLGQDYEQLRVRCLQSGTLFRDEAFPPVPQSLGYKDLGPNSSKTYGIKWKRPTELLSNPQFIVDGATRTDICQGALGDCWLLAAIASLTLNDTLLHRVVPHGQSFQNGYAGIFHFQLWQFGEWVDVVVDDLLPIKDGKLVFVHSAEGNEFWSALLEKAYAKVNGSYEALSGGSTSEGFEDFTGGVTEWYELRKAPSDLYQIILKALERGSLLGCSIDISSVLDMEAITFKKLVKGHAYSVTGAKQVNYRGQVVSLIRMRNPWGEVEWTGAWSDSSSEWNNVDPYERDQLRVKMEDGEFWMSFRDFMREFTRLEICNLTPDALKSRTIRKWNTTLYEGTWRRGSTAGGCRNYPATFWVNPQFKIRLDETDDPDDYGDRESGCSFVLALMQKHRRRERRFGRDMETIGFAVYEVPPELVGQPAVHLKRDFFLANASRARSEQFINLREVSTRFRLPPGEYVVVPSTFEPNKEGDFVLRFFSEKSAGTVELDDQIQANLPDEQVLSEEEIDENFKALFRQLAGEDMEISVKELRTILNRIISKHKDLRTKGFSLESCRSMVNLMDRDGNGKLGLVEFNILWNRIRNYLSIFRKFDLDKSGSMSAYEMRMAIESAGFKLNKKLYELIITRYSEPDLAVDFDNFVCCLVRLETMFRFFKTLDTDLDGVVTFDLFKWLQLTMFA
HRH3: Histamine H3 receptor (HRH3, Homo sapiens, UniProt Q9Y5N1)
Chain of UniProt Q9Y5N1 (whole entry, looked up): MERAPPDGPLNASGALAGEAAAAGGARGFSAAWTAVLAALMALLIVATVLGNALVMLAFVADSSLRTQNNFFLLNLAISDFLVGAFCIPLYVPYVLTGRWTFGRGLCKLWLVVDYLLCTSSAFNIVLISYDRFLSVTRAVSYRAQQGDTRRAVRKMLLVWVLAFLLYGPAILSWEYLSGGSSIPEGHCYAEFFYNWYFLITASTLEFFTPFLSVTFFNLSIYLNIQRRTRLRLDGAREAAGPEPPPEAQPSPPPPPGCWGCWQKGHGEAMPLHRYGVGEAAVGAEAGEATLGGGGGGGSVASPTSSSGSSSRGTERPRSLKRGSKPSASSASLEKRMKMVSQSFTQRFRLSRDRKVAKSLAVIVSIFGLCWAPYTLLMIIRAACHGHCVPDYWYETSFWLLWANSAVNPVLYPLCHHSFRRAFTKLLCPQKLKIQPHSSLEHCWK
Chain of UniProt P08908 (whole entry, looked up): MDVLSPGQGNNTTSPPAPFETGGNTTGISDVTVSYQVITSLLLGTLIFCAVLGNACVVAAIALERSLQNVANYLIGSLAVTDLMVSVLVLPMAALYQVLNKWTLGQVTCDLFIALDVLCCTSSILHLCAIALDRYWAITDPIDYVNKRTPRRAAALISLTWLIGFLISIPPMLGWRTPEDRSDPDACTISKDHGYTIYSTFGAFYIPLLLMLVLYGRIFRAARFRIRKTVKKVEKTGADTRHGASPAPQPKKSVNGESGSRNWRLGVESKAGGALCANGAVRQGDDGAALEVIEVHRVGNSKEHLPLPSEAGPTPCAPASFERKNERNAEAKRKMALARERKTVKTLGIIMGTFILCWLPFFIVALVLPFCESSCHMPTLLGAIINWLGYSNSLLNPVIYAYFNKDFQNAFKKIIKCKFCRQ
Chain of UniProt Q15059 (whole entry, looked up): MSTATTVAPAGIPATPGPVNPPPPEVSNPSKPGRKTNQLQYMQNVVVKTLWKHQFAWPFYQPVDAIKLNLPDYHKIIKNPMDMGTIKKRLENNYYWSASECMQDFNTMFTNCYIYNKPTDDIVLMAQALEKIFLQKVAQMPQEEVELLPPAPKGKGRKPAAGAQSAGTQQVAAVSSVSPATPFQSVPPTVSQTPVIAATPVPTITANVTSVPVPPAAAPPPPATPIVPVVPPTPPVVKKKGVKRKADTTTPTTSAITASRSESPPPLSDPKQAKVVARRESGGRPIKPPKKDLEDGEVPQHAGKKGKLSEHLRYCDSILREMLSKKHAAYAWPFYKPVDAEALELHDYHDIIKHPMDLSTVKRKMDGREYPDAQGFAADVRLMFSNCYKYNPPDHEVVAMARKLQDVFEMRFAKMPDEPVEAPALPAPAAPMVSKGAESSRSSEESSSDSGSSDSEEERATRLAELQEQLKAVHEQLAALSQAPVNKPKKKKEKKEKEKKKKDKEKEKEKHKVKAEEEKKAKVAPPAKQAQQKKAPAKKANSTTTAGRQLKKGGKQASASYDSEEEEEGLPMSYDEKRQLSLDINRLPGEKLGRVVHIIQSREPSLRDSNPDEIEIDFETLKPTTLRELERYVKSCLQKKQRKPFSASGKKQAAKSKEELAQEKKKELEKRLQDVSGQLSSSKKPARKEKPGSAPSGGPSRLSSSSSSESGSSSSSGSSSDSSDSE
Chain of UniProt P15823 (whole entry, looked up): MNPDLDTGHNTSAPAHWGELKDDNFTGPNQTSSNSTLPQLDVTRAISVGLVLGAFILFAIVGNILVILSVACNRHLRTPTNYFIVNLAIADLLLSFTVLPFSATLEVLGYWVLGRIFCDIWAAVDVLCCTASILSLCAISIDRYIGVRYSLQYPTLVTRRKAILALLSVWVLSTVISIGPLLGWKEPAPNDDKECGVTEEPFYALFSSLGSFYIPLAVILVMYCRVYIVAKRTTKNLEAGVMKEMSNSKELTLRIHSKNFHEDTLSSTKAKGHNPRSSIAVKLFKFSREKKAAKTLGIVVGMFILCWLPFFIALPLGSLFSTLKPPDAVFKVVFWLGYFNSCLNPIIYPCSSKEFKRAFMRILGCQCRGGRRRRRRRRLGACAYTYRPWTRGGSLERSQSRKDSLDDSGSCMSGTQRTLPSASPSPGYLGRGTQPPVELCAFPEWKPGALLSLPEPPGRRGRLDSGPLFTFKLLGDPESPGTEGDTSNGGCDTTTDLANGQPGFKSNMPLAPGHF

Compound = CS(=O)(=O)c1ccc(-n2cc(C=NN=c3[nH]c(-c4ccc(Br)cc4)cs3)c(-c3ccc(Br)cc3)n2)cc1; target = PTGS1; assay = enzyme activity; setting = 1 µM; inhibition = 56.1%
Compound = CN(Cc1ccc(/C=C/C(=O)NO)cc1)CC12CC3CC(CC(C3)C1)C2; target = human H2 receptor; assay = antagonist radioligand binding; setting = 0.05 µM; inhibition = 15%
Compound = COc1ccccc1O[C@@H]1O[C@H](CO)[C@H](O)[C@H](O)[C@H]1O; target = Adhesin FmlH lectin domain; assay = binding to desialylated mucin, ELISA competition; system = UPEC UTI89; setting = 10 µM, added: desialylated bovine submaxillary mucin; inhibition = 55.7 ± 1.6%
Compound = CCCc1cc(C2CCCN2C(=O)c2cc(-c3ccc(OC)c(OC)c3)on2)no1 (centres unmarked); target = USP51; assay = enzyme activity, inhibitor; setting = 1 µM; inhibition = 26.3 ± 9.2%
Compound = Cc1[nH]nc2c1N=C(c1ccccc1Cl)c1cnc(N3CCOCC3)cc1N2; target = Adra1b (Rattus norvegicus, UniProt P15823); assay = cell-free assay; setting = 10 µM; inhibition = 3%
Compound = O=C(CCO)c1ccc(O)cc1; target = MAL12; assay = inhibitor; setting = 100 µg/mL, 0.4167 h, added: p-nitrophenyl glucoside substrate; inhibition = 47.6 ± 5.4%
Compound = COc1cc(NC2(c3ccccc3)C(=O)c3ccccc3C2=O)cc(OC)c1OC; target = USP51; assay = enzyme activity, inhibitor; setting = 1 µM; inhibition = 3.6 ± 1.1%
Compound = Cc1ccc(CNC(=O)C(CCc2ccccc2)NC(=O)C(NC(=O)c2ccc(OCc3ccc(C(C)(C)C)cc3)cc2)C(C)O)cc1 (centres unmarked); target = CAPN1; assay = enzyme activity, inhibitor; setting = 100 µM; inhibition = 5%
Compound = Nc1ccccc1C(=O)NCCCN1CCN(Cc2ccccc2)CC1; target = DRD2 (Homo sapiens, UniProt P14416); assay = enzyme activity, inhibitor; setting = 10 µM; inhibition = 15.3%
Compound = OC[C@H]1O[C@@H](Oc2ccccc2Cl)[C@H](O)[C@@H](O)[C@H]1O; target = Adhesin FmlH lectin domain; assay = binding to desialylated bovine submaxillary mucin, inhibitor, ELISA competition; system = UPEC UTI89; setting = 1 µM; inhibition = 8 ± 4%
Compound = C=CCNC(=O)[C@H](CCc1ccccc1)NC(=O)[C@H](CC(=O)NCC(C)(C)C)NC(=O)CCc1ccccc1; target = CAPN1; assay = enzyme activity, inhibitor; setting = 100 µM; inhibition = 32%
Compound = C[Si](C)(C)C[C@H](CN)CC(=O)O; target = HRH3; assay = ligand displacement, radioligand; setting = 250 µM; inhibition = -1%
Compound = CC(C)Cn1c(SCC(=O)N2CCc3ccccc3C2)nc2cc(Cl)ccc2c1=O; target = HRH3; assay = ligand displacement, radioligand; setting = 10 µM; inhibition = -9%
Compound = Oc1ccc(C2NCCc3cc(O)c(O)cc32)cc1 (centres unmarked); target = MAL12; assay = enzyme activity, inhibitor; setting = 100 µM, DMSO solvent, added: pNPG substrate; inhibition = 103.55 ± 0.09%
Compound = Cc1nc2c(F)cc(-c3nc(Nc4ccc(CNC(=O)CCCCCCC(=O)NO)cc4)ncc3F)cc2n1C(C)C; target = MLCK(h) human kinase; assay = enzyme activity; setting = 1 µM; inhibition = 64%
Compound = Cc1ccccc1O[C@@H]1O[C@H](CO)[C@H](O)[C@H](O)[C@H]1O; target = Adhesin FmlH lectin domain; assay = binding to desialylated mucin, ELISA competition; system = UPEC UTI89; setting = 100 µM; inhibition = 87.3 ± 3.7%
Compound = O=C1c2sc(-c3ccc(N4CCC(CO)CC4)nc3F)nc2CCN1c1cccnc1; target = SKCa channel; assay = radioligand binding; setting = 1 µM, added: antagonist radioligand; inhibition = -9%
Compound = C/C1=C\CC/C(C)=C/CC(C)(C)/C=C/C1; target = Trpv1 (Rattus norvegicus, UniProt O35433); assay = ion current, inhibitor, outside-out patch clamp; setting = 100 µM, added: pH 5.5 activation; inhibition = 93 ± 3%
Compound = Cc1ccc(-c2nn(-c3ccc(S(C)(=O)=O)cc3)cc2C=NN=c2[nH]c(-c3ccc([N+](=O)[O-])cc3)cs2)cc1; target = PTGS1; assay = enzyme activity; setting = 100 µM; inhibition = 78%
Compound = CCOc1ccc(C(=O)Nc2nnc(Cc3nc4ccccc4[nH]3)s2)cc1OCC; target = USP51; assay = enzyme activity, inhibitor; setting = 1 µM; inhibition = 31.9 ± 14.5%
Compound = C[C@@H](O)[C@H](NC(=O)c1ccc(OCc2ccccc2)cc1)C(=O)N[C@@H](CCc1ccccc1)C(=O)NCc1ccccc1Cl; target = Plasminogen (PLG, Homo sapiens, UniProt P00747); assay = enzyme activity, inhibitor; setting = 100 µM; inhibition = -11%
Compound = CCn1cc(-c2cccc(C(F)(F)F)c2)c2sc(C(=N)NC3CCS(=O)(=O)CC3)cc2c1=O; target = Bromodomain-containing protein 3, BD1 (BRD3, Homo sapiens, UniProt Q15059); setting = 1 µM; inhibition = 2.84%
Compound = O=C(NCCn1cccc1-c1nc(-c2ccc3c(c2)OCO3)no1)c1cccc(F)c1; target = USP51; assay = enzyme activity, inhibitor; setting = 1 µM; inhibition = 16.6 ± 3.9%
Compound = OC[C@H]1O[C@@H](Oc2ccc3ccccc3c2)[C@H](O)[C@@H](O)[C@H]1O; target = Adhesin FmlH lectin domain; assay = binding to desialylated mucin, ELISA competition; system = UPEC UTI89; setting = 10 µM, added: desialylated bovine submaxillary mucin; inhibition = 14.6 ± 3.1%
Compound = COc1cc(Nc2ccn3nccc3n2)cc(OC)c1OC; target = crk3, with CYC6 (Leishmania mexicana, UniProt O15851); assay = IMAP fluorescence polarisation; setting = 30 µM, with L. major CYC6; inhibition = 0%
Compound = N#Cc1ccc(O[C@@H]2O[C@H](CO)[C@H](O)[C@H](O)[C@H]2O)cc1; target = Adhesin FmlH lectin domain; assay = binding to desialylated bovine submaxillary mucin, inhibitor, ELISA competition; system = UPEC UTI89; setting = 1 µM; inhibition = 9.5 ± 3.7%
Compound = CC1Cc2ccccc2N1C(=O)CN1CCN(Cc2ccccc2)CC1 (centres unmarked); target = HTR1A (Homo sapiens, UniProt P08908); assay = radioligand binding; setting = concentration not given, added: [3H]8-OH-DPAT; inhibition = 55.8%
Compound = O=[N+]([O-])c1ccccc1O[C@@H]1O[C@H](COP(=O)(O)O)[C@H](O)[C@H](O)[C@H]1O; target = Adhesin FmlH lectin domain; assay = binding to desialylated mucin, ELISA competition; system = UPEC UTI89; setting = 100 µM; inhibition = 1.3 ± 4.7%
Compound = N#C/C(=C\c1ccc(O)c(O)c1)C(=O)c1ccc(O)c(O)c1; target = Genome polyprotein, NS3 helicase domain (Hepatitis C virus genotype 1b, UniProt Q9WMX2); assay = DNA binding, inhibitor; system = hepatitis C virus; setting = 100 µM, added: Cy5-dT15 DNA; inhibition = 100%
Compound = C/C=C/C(=O)Nc1ccc2nc(NCCCCCN(C)C)nc(NCCCCCCN(C)C)c2c1; target = SETD2 (Homo sapiens, UniProt Q9BYW2); assay = enzyme activity, inhibitor, radiometric; setting = 50 µM; inhibition = 95%
Compound = COC(=O)c1cccc(-c2ccccc2O[C@H]2O[C@H](CO)[C@H](O)[C@H](O)[C@H]2O)c1; target = Adhesin FmlH lectin domain; assay = binding to desialylated mucin, ELISA competition; system = UPEC UTI89; setting = 100 µM; inhibition = 13.1 ± 7.6%
Compound = CS(=O)(=O)c1ccc(-n2cc(C=NN=c3[nH]c(-c4ccc([N+](=O)[O-])cc4)cs3)c(-c3ccc(Br)cc3)n2)cc1; target = PTGS1; assay = enzyme activity; setting = 0.1 µM; inhibition = 17.6%
Compound = COc1ccc(C(=O)Nc2c(-c3cccs3)nc3ccccn23)cc1; target = ADRA2B (Homo sapiens, UniProt P18089); assay = ligand displacement, radioligand; setting = 10 µM; inhibition = < 50%
Compound = CCc1cc(-c2csc(S(=O)(=O)Nc3cc(OC)c(OC)c(OC)c3)c2)on1; target = USP51; assay = enzyme activity, inhibitor; setting = 1 µM; inhibition = 8.3 ± 2.2%
Compound = CC(C)Cc1ccc(-c2nn(-c3ccc(S(C)(=O)=O)cc3)cc2C=NN=c2[nH]c(-c3ccc(Br)cc3)cs2)cc1; target = PTGS1; assay = enzyme activity; setting = 1 µM; inhibition = 25.9%

Excerpt of the above:
Compound = O=C(NCCn1cccc1-c1nc(-c2ccc3c(c2)OCO3)no1)c1cccc(F)c1; target = USP51; assay = enzyme activity, inhibitor; setting = 1 µM; inhibition = 16.6 ± 3.9%
Compound = Cc1ccccc1O[C@@H]1O[C@H](CO)[C@H](O)[C@H](O)[C@H]1O; target = Adhesin FmlH lectin domain; assay = binding to desialylated mucin, ELISA competition; system = UPEC UTI89; setting = 100 µM; inhibition = 87.3 ± 3.7%
Compound = COc1ccccc1O[C@@H]1O[C@H](CO)[C@H](O)[C@H](O)[C@H]1O; target = Adhesin FmlH lectin domain; assay = binding to desialylated mucin, ELISA competition; system = UPEC UTI89; setting = 10 µM, added: desialylated bovine submaxillary mucin; inhibition = 55.7 ± 1.6%
Compound = OC[C@H]1O[C@@H](Oc2ccccc2Cl)[C@H](O)[C@@H](O)[C@H]1O; target = Adhesin FmlH lectin domain; assay = binding to desialylated bovine submaxillary mucin, inhibitor, ELISA competition; system = UPEC UTI89; setting = 1 µM; inhibition = 8 ± 4%
Compound = CC1Cc2ccccc2N1C(=O)CN1CCN(Cc2ccccc2)CC1 (centres unmarked); target = HTR1A (Homo sapiens, UniProt P08908); assay = radioligand binding; setting = concentration not given, added: [3H]8-OH-DPAT; inhibition = 55.8%
